Assay results from different studies.
Protocols differ between the studies behind these lines.

Compound	system	conditions	half-life
Cc1[nH]nc2c1N=C(c1ccccc1Cl)c1cnc(N3CCOCC3)cc1N2	male Sprague-Dawley rat, plasma	oral, 5 mg/kg	3.5 h
OCC1OC(n2cnc3c(NCc4ccc(Br)s4)ncnc32)C(O)C1O (stereo not shown)	male Sprague-Dawley rat, blood	oral, 10 mg/kg	2.5 to 3.6 h
COC1C(c2ccc(Cl)c(Cc3ccc(OC4CCOC4)cc3)c2)OC(CO)C(O)C1O (stereo not shown)	Sprague-Dawley rat, plasma	intravenous, 2.5 mg/kg	1.09 h
Cc1cccc(C)c1CNc1cc(C(=O)N2CCC2)cn2c(C)c(C)nc12	male Sprague-Dawley rat, plasma	oral, 10 mg/kg	1.9 h
CNC(=O)C1CCCN(C(=O)C2CC3CCC2N3C(=O)[C@@H]2C[C@@H](O)CN2C(=O)NCc2cccc(Cl)c2F)C1 (mixture of isomers)	rat, plasma	intravenous, 2.5 mg/kg	3.55 h
COC(=O)C1=CNC=C(C(=O)OC)C1c1ccc(F)c(C(F)(F)F)c1	male Sprague-Dawley rat, plasma	intravenous, 5 mg/kg	1.15 h
OC1(C(F)(F)F)CCN(c2nc(Nc3ccnc(C(F)(F)F)c3)nc(-c3cccc(C(F)(F)F)n3)n2)C1 (stereo not shown)	Sprague-Dawley rat, plasma	oral, 20 mg/kg	12.1 h
CC(=Nc1ccc(N)cc1)N(C)C	male Sprague-Dawley rat, plasma	intravenous, 20 mg/kg	5.58 h
CCOP(=O)(CC(=O)Nc1ccc(S(=O)(=O)N(CC(N)=O)c2ccc(N(CC(N)=O)S(=O)(=O)c3ccc(OC)cc3)c3ccccc23)cc1)OCC	male Wistar rat, plasma	intravenous, 28 mg/kg, single dose	2.75 h
O=C(O)c1c(O)cc(O[C@@H]2O[C@H](CO)[C@@H](O)[C@H](O)[C@H]2O)cc1/C=C/c1ccccc1	male Sprague-Dawley rat, plasma	intravenous, 1 mg/kg	0.895 h
Cc1cc2c(cc1O)C=C1C=CC(=O)C(C)(C)[C@H]1CC2	male Sprague-Dawley rat, plasma	oral, 20 mg/kg	7.61 h
COCCN(C)CC(=O)NC(Cc1ccc(-c2ccccc2)cc1)B(O)O (stereo not shown)	rat, plasma	intravenous, 1 mg/kg	5.3 h
O=c1c(-c2ccc(Cl)c(CN3CCOCC3)c2)coc2cc(O)ccc12	male Sprague-Dawley rat, plasma	intravenous, 2 mg/kg	7.14 h
CCC(CC)n1c(Cc2cccs2)nc2cc(C(=O)N[C@@H](CC(=O)O)c3ccccc3)ccc21	male Sprague-Dawley rat, plasma	intravenous, 1 mg/kg	1.42 h
CN1CCC[C@@H]1C(=O)N[C@@H](Cc1ccc(-c2ccccc2)cc1)B(O)O	male Sprague-Dawley rat, plasma	intravenous, 1 mg/kg	4.4 h
C=C(NC(=O)c1csc(-c2nc3c(cc2O)-c2nc(cs2)C(=O)NC(C(C)O)C(=O)NC(=C(C)OC)c2nc(cs2)C(=O)NC2c4nc(cs4)C(=O)NC(COC(=O)c4c5c6c(cccc6n4O)COC(=O)C(OC4CC(C)(O)C(N(C)C)C(C)O4)C2OC5)c2nc-3cs2)n1)C(N)=O (stereo not shown)	female Sprague-Dawley rat, plasma	intravenous, 6 mg/kg, single dose, infusion	5.37 h
C/C(N)=N/C(=N\S(=O)(=O)c1ccc(C(F)(F)F)cc1)N1C[C@H](c2ccccc2)C(c2ccc(Cl)cc2)=N1	male Sprague-Dawley rat, plasma	oral, 3 mg/kg	4.4 h
CCC(CC)n1c(Cc2ccco2)nc2cc(C(=O)N[C@@H](CC(=O)O)c3ccccc3)ccc21	male Sprague-Dawley rat, plasma	intraperitoneal, 10 mg/kg	4.43 h
CC1(C)C(NC(=O)C(=NOC2(C(=O)O)CCC2)c2csc(N)n2)C(=O)N1OS(=O)(=O)O (stereo not shown)	rat, plasma	intravenous, 10 mg/kg, single dose	0.55 h
